# Results of several laboratories.
# Compare with care: the assays were run in different laboratories. “And” joins repeats or separate records; there may be more than shown.
# Rhomboid protease AarA: Rhomboid protease AarA (Providencia stuartii, UniProt P46116)
# Chain of UniProt P46116 (whole entry, looked up): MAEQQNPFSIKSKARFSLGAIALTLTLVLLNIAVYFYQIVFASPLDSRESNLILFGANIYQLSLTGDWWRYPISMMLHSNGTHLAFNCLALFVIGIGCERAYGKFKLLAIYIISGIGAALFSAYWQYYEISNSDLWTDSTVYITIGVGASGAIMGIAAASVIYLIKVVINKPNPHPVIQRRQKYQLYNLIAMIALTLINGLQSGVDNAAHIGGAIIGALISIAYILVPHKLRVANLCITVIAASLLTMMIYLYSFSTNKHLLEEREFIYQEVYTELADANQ
# KDM1A: Lysine-specific histone demethylase 1A (KDM1A, Homo sapiens, UniProt O60341)
# Chain of UniProt P10721 (whole entry, unmodified, looked up): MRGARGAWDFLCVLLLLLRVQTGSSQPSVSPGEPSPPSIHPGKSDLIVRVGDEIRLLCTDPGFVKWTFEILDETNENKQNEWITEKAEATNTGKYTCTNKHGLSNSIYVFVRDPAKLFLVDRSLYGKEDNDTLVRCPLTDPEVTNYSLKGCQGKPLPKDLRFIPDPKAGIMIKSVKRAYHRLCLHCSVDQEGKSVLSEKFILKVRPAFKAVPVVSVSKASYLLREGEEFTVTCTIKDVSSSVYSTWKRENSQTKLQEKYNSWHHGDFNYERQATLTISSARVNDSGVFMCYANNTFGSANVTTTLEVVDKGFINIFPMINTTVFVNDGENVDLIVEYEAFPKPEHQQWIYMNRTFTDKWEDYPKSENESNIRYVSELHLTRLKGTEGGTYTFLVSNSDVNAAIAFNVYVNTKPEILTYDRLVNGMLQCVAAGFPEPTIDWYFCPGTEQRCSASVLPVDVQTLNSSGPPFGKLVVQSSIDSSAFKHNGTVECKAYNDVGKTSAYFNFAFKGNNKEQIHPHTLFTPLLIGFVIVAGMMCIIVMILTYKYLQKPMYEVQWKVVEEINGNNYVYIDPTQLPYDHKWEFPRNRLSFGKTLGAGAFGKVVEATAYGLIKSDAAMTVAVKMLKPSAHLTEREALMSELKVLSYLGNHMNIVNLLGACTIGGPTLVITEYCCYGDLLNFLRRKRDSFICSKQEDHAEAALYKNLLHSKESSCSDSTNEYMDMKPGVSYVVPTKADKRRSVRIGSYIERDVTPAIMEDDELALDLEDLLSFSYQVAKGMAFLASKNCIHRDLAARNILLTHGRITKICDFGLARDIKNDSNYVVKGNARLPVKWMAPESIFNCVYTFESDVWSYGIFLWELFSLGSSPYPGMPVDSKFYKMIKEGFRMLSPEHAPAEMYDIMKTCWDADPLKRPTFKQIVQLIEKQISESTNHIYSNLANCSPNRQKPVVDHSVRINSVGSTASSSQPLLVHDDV
# Chain of UniProt Q96QT4 (whole entry, looked up): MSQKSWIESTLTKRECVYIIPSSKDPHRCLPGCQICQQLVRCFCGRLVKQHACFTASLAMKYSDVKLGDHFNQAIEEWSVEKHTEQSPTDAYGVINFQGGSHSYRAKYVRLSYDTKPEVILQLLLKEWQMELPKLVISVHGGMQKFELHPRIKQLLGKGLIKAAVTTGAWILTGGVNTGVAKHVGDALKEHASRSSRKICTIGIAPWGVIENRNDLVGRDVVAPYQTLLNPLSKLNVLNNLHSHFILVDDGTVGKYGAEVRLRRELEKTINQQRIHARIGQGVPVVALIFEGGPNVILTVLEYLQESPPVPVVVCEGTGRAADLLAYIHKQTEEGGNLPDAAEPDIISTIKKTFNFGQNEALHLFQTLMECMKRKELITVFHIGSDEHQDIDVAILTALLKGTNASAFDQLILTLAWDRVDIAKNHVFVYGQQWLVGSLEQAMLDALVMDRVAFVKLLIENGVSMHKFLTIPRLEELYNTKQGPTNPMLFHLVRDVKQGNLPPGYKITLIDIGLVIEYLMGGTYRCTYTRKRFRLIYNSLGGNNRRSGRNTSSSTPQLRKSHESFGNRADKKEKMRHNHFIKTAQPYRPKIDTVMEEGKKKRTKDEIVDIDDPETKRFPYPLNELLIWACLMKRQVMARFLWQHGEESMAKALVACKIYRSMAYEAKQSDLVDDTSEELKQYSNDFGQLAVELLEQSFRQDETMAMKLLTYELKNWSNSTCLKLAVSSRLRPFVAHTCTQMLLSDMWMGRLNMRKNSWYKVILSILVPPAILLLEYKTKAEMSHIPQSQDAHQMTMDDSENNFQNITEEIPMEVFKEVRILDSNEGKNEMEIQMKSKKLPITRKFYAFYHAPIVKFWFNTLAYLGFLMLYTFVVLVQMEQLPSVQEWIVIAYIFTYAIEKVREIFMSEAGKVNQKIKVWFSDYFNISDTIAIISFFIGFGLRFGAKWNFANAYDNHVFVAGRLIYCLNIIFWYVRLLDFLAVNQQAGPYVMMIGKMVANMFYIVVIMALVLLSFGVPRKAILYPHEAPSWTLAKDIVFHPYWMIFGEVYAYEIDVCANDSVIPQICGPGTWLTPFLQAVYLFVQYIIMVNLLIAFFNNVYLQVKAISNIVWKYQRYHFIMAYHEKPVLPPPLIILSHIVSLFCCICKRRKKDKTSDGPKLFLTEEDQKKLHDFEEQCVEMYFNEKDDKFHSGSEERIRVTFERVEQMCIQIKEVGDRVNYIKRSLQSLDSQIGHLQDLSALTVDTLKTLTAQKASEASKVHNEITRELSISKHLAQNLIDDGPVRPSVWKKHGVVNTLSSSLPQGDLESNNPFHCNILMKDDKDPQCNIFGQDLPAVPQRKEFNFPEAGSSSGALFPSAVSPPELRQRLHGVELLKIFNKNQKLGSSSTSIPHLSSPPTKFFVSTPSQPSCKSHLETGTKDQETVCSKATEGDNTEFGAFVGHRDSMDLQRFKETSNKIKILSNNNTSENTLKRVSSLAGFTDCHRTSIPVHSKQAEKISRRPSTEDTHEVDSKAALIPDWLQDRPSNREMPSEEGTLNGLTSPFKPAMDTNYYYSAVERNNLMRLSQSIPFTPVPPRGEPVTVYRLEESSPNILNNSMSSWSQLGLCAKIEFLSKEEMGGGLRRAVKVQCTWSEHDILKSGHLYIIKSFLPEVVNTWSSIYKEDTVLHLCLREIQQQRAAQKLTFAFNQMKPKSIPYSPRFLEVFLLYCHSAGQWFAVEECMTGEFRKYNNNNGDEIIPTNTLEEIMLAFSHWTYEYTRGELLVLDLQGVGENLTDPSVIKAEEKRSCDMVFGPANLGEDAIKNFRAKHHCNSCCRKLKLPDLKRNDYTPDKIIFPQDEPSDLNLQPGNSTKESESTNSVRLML
# Chain of UniProt P45983 (whole entry, looked up): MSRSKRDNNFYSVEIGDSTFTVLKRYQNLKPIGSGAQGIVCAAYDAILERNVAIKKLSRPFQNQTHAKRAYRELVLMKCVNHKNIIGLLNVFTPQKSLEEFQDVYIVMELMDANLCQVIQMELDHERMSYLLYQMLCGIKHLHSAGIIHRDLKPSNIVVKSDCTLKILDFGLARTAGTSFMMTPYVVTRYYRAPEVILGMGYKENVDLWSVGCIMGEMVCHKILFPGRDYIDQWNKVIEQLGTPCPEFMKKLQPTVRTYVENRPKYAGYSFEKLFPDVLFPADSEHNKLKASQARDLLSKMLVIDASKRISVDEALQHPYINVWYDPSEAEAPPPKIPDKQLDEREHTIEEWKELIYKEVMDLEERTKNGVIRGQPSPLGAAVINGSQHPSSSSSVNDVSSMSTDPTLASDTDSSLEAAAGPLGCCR
# Chain of UniProt Q9HB29 (whole entry, looked up): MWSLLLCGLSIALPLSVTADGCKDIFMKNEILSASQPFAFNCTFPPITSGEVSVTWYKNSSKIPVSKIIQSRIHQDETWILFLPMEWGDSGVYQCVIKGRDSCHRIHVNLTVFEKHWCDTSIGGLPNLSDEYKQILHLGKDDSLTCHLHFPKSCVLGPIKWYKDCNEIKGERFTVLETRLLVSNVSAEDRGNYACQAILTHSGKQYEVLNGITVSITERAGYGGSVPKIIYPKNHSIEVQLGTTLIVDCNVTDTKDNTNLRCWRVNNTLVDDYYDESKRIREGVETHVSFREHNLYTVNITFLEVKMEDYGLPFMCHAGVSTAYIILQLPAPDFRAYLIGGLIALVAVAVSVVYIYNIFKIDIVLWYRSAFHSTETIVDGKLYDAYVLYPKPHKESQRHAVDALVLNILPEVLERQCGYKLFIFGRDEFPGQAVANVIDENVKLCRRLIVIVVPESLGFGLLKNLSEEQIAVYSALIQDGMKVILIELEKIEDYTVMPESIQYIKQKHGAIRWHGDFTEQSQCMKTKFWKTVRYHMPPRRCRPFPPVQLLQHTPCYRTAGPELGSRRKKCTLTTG
Compound,target or system,assay,system,conditions,how to read,measurement,result
O=C(Cc1ccc(OCc2ccccc2)cc1)NC1(C(=O)O)CCN(C(=O)c2ccc(-c3cccc(Cl)c3)cc2)CC1,"Transient receptor potential cation channel subfamily M member 7 (TRPM7, Homo sapiens, UniProt Q96QT4)","kinase activity, inhibitor",,"10 µM, added: ATP at Km",,remaining activity,118%
O=C1CC(c2ccccc2)N1S(=O)(=O)c1ccc(-c2ccccc2)cc1 (stereo not shown),Rhomboid protease AarA,"enzyme activity, inhibitor",,100 µM,,remaining activity,84%
Cc1nnc(NC(=O)c2cc([C@@H]3C[C@H]3NC3CCC3)ccc2Br)s1 (relative stereo),KDM1A,"demethylase activity, inhibitor, Amplex Red",,"6.667 µM, added: H3K4me2 peptide",relative to: vehicle,remaining activity,16%
CC(C)[C@@H]1NC(=O)[C@H](Cc2ccccc2)NC(=O)CSC[C@@H](C(N)=O)NC(=O)[C@H](CCC(=O)O)NC(=O)[C@H](CO)NC(=O)[C@H](Cc2c[nH]c3cccc(Cl)c23)NC(=O)[C@H](C2CCCCC2)NC(=O)[C@H](C(C)C)NC(=O)[C@H](Cc2ccc(O)cc2)NC(=O)[C@H](CC(=O)O)NC(=O)[C@H](Cc2c[nH]c3ccccc23)NC(=O)[C@H](Cc2ccc(N)nc2)NC(=O)[C@H](Cc2c[nH]c3ccc(Cl)cc23)NC(=O)[C@H](CCC(=O)O)NC1=O,"Interleukin-1 receptor-like 2 (IL1RL2, Homo sapiens, UniProt Q9HB29)","reporter gene (SEAP), inhibitor, HEK-Blue IL-36R reporter",HEK-Blue IL-36R cells,"3.7 µM, 6 h, added: IL-36β 1 ng/mL",,remaining activity,48.1%
CNC(=O)c1cccc([C@@H]2C[C@H]2NC2CCC2)c1 (racemic),KDM1A,"demethylase activity, inhibitor",,"0.06859 µM, added: H3K4me2 peptide",,remaining activity,91.8%
COc1cc(Nc2nc(C)cc(-c3cnn4nc(OC)ccc34)n2)cc(C(F)(F)F)c1,"Mast/stem cell growth factor receptor Kit (KIT, Homo sapiens, UniProt P10721)",inhibitor,,1 µM,relative to: control,remaining activity,89%
CN(Cc1cc(C2CC2)on1)C(=O)c1cccc(-c2ccc3c(c2)CCO3)c1,"Acetyl-CoA synthetase (Cryptococcus neoformans, UniProt J9VFT1)","enzyme activity, inhibitor, coupled pyrophosphate",,50 µM,,remaining activity,87.4% and 83.9%
COc1ccccc1-c1ccncc1C(=O)Nc1ccc(OCc2ccc(Cl)cc2)nn1,"DNA polymerase theta, helicase domain (POLQ, Homo sapiens, UniProt O75417)","ATPase activity, ADP-Glo",,0.24 µM,relative to: 0 µM cpd,remaining activity,97%
Cc1cnc(NC(=O)c2cccc([C@@H]3C[C@H]3NC3CCC3)c2)s1,KDM1A,"demethylase activity, inhibitor, Amplex Red",,"0.00823 µM, added: H3K4me2 peptide",relative to: vehicle,remaining activity,98.1%
CC(C)C1CC(=O)N1S(=O)(=O)c1cccc(Cl)c1 (stereo not shown),Rhomboid protease AarA,"enzyme activity, inhibitor",,100 µM,,remaining activity,72%
O=C(Nc1ccccc1)c1cccc([C@@H]2C[C@H]2NC2CCC2)c1 (racemic),KDM1A,"demethylase activity, inhibitor, Amplex Red",,"0.2222 µM, added: H3K4me2 peptide",relative to: vehicle,remaining activity,57.9%
COC(=O)[C@@]1(C)C=C(C(=O)Nc2cccc(C(=O)Nc3ccc(Nc4nccc(-c5cccnc5)n4)c(C)c3)c2)C(=O)CC1,"Mitogen-activated protein kinase 8 (MAPK8, Homo sapiens, UniProt P45983)","enzyme activity, inhibitor",,"2.79e-05 µM, 18 h, unit not given, added: GSH 10 mM pre-incubation",relative to: vehicle,remaining activity,1.05
COC1CN([C@H]2CC[C@H]([C@@]3(C)Oc4c(Cl)cc(C(=O)NCc5c(SC)cc(C)[nH]c5=O)c(C)c4O3)CC2)C1,,"RNA-seq, item: CADM3","human, whole blood","dose not given, 24 h",relative to: pretreatment baseline,log2 fold change,21.5

# Excerpt of the above:
Compound,target or system,assay,system,conditions,how to read,measurement,result
CNC(=O)c1cccc([C@@H]2C[C@H]2NC2CCC2)c1 (racemic),KDM1A,"demethylase activity, inhibitor",,"0.06859 µM, added: H3K4me2 peptide",,remaining activity,91.8%
COC1CN([C@H]2CC[C@H]([C@@]3(C)Oc4c(Cl)cc(C(=O)NCc5c(SC)cc(C)[nH]c5=O)c(C)c4O3)CC2)C1,,"RNA-seq, item: CADM3","human, whole blood","dose not given, 24 h",relative to: pretreatment baseline,log2 fold change,21.5
